Measured values collected from several papers.
Parts stem from different laboratories: compare values within a part only. Positions count from the first letter of the parent shown.
Chain of UniProt Q9H3Y6 (whole entry, looked up): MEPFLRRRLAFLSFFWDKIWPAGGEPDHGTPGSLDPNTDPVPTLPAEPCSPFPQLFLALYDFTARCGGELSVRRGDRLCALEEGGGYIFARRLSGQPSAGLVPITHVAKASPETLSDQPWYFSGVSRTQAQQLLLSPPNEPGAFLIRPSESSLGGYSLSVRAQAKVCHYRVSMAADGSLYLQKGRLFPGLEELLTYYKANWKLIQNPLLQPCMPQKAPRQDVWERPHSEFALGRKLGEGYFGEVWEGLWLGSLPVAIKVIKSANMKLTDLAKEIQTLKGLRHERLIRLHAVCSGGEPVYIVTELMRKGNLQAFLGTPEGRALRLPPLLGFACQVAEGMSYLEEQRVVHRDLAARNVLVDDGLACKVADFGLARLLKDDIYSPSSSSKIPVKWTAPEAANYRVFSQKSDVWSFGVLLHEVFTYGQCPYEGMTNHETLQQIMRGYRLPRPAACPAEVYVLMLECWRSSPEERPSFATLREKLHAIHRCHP
Chain of UniProt O15530 (whole entry, looked up): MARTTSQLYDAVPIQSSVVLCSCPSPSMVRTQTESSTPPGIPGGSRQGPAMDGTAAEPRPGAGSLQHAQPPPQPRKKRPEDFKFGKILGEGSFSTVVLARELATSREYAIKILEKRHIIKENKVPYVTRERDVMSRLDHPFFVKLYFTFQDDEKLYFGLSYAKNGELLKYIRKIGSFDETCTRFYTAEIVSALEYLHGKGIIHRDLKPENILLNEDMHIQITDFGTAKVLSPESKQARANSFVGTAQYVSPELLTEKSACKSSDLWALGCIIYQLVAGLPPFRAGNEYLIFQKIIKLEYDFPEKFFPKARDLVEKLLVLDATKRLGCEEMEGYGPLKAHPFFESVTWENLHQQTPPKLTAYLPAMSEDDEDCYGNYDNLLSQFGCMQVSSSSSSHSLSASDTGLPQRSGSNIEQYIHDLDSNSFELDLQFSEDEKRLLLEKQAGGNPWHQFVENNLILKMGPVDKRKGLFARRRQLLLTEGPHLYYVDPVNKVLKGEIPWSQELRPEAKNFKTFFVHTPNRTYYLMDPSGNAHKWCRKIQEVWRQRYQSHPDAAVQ
Chain of UniProt Q15375 (whole entry, looked up): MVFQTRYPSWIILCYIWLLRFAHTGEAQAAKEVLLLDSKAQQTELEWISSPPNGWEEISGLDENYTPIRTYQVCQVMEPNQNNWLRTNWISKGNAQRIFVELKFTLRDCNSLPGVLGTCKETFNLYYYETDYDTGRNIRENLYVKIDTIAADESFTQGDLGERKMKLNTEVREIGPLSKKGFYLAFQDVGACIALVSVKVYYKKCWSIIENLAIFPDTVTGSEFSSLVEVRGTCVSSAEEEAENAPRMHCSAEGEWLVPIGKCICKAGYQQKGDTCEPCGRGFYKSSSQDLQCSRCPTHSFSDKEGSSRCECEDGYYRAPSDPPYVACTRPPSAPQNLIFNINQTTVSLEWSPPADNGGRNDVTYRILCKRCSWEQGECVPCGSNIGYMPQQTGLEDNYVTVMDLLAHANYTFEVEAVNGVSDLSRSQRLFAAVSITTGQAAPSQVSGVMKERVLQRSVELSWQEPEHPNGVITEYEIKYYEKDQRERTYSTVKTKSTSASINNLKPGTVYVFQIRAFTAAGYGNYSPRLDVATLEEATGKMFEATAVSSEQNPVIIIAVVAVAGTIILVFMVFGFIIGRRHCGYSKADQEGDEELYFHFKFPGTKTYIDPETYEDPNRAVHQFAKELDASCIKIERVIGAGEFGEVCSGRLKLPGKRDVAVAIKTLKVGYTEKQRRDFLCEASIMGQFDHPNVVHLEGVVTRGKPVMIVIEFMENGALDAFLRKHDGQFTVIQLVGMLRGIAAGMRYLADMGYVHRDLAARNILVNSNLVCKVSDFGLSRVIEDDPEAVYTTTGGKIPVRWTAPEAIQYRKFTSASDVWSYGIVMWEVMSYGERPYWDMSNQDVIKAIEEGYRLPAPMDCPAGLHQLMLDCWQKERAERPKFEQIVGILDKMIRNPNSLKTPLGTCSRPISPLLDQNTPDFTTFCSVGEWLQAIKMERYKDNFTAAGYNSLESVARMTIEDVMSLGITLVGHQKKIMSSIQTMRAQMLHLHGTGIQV
Chain of UniProt Q9H2X6 (whole entry, looked up): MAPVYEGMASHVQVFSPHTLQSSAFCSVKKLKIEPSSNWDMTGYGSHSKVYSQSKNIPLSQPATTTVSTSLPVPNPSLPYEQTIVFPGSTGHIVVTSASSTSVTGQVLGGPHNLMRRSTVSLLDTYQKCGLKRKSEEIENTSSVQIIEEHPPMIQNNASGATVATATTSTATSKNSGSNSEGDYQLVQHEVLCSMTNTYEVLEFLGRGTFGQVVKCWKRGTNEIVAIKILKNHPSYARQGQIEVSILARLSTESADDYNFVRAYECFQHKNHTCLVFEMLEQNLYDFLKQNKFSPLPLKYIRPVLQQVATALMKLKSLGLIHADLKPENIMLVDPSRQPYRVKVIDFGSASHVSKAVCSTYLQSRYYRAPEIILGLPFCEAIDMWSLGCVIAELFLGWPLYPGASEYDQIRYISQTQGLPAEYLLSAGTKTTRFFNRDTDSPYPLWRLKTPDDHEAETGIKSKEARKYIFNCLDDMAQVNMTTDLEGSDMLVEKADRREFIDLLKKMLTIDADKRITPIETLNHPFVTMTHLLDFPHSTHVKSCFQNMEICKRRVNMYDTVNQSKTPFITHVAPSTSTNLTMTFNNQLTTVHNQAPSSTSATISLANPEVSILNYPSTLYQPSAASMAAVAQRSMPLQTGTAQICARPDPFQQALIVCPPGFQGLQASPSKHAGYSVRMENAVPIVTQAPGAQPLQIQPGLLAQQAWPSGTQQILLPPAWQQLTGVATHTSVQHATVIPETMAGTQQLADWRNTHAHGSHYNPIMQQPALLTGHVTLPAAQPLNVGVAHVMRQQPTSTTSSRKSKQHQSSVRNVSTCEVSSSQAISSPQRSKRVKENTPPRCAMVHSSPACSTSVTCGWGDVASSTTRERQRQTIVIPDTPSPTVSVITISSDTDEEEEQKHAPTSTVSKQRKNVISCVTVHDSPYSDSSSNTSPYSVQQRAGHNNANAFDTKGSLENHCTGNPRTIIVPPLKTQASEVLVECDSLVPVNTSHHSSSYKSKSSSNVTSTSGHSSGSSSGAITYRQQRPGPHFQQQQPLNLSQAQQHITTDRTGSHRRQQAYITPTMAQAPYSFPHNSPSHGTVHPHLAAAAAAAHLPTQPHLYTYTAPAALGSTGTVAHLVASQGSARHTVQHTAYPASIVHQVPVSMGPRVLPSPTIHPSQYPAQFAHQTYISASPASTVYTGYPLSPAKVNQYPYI
Chain of UniProt Q52WX2 (whole entry, looked up): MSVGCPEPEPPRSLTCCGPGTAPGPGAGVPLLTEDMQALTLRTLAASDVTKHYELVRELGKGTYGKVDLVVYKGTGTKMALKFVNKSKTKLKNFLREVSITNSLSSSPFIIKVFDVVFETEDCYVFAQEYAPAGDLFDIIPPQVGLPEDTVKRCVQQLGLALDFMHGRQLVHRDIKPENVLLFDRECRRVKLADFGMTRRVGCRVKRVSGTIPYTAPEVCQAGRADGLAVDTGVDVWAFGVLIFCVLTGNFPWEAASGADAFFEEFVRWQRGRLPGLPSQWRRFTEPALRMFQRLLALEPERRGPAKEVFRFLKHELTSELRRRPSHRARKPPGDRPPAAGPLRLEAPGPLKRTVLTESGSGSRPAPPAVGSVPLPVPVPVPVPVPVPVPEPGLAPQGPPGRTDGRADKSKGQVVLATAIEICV
Chain of UniProt P51451 (whole entry, looked up): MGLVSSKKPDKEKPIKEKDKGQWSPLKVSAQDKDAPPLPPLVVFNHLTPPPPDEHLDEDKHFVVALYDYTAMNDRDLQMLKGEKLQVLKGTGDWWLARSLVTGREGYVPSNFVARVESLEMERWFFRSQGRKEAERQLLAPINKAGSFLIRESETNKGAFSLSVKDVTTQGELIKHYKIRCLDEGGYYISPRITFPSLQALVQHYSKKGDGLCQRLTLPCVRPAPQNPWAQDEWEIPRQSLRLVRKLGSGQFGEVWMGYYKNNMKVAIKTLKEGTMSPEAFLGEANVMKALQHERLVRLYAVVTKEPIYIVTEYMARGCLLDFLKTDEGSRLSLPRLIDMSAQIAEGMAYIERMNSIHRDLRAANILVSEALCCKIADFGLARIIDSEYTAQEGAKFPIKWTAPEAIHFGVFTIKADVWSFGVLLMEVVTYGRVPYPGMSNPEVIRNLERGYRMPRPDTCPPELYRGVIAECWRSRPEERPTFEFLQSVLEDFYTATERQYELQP
Chain of UniProt P42681 (whole entry, looked up): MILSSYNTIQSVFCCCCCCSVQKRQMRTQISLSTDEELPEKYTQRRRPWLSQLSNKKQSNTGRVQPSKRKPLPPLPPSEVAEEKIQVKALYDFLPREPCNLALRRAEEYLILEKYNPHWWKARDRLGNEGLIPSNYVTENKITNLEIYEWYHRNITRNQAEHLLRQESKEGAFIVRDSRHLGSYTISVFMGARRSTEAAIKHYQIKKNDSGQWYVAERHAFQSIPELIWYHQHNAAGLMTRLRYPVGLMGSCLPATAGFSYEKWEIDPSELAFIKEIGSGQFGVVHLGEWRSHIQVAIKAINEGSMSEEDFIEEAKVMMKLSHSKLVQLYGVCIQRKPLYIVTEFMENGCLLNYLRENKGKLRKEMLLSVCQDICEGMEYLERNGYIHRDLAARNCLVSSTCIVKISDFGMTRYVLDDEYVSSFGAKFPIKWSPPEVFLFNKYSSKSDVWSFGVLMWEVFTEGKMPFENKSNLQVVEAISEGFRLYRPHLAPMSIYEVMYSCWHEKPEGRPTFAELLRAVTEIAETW

Set 1
SMILES: NS(=O)(=O)c1cc(NC(=O)C2(c3ccccc3Cl)CC2)ccc1Oc1cccc(Cl)c1
Technique: competition with immobilised ligand
Concentration: 1 µM
It gave 100% for remaining binding (Fibroblast growth factor receptor 1 (FGFR1, Homo sapiens, UniProt P11362); cell-free assay).
The remaining binding was 86% (Dual specificity tyrosine-phosphorylation-regulated kinase 1B (DYRK1B, Homo sapiens, UniProt Q9Y463); cell-free assay).
Myosin light chain kinase family member 4 (MYLK4, Homo sapiens, UniProt Q86YV6); cell-free assay — remaining binding: 94%.
It gave 100% for remaining binding (Serine/threonine-protein kinase TAO3 (TAOK3, Homo sapiens, UniProt Q9H2K8); cell-free assay).
It gave 90% for remaining binding (Tyrosine-protein kinase TXK (TXK, Homo sapiens, UniProt P42681); binding).
The remaining binding was 89% (Activin receptor type-1B (ACVR1B, Homo sapiens, UniProt P36896); cell-free assay).
Phosphatidylinositol 4,5-bisphosphate 3-kinase catalytic subunit alpha isoform (PIK3CA, Homo sapiens, UniProt P42336, Q546K); cell-free assay — remaining binding: 84%.
The remaining binding was 100% (Cyclin-dependent kinase 13 (CDK13, Homo sapiens, UniProt Q14004); cell-free assay).
It gave 96% for remaining binding (Serine/threonine-protein kinase haspin (HASPIN, Homo sapiens, UniProt Q8TF76); cell-free assay).
The remaining binding was 61% (Hepatocyte growth factor receptor (MET, Homo sapiens, UniProt P08581, Y1235D); cell-free assay).
The remaining binding was 99% (Serine/threonine-protein kinase 36 (STK36, Homo sapiens, UniProt Q9NRP7); cell-free assay).
For Tyrosine-protein kinase ABL1, non-phosphorylated (ABL1, Homo sapiens, UniProt P00519, F317L); cell-free assay: remaining binding read 88%.
For Serine/threonine-protein kinase SBK1 (SBK1, Homo sapiens, UniProt Q52WX2); cell-free assay: remaining binding read 100%.
It gave 100% for remaining binding (Epidermal growth factor receptor (EGFR, Homo sapiens, UniProt P00533, T790M); cell-free assay).
For Maternal embryonic leucine zipper kinase (MELK, Homo sapiens, UniProt Q14680); cell-free assay: remaining binding read 96%.
The remaining binding was 82% (Ephrin type-A receptor 7 (EPHA7, Homo sapiens, UniProt Q15375); cell-free assay).
The remaining binding was 100% (Serine/threonine-protein kinase 32C (STK32C, Homo sapiens, UniProt Q86UX6); cell-free assay).

Set 2
Target: Runt-related transcription factor 3, Runt domain (RUNX3, Homo sapiens, UniProt Q13761, residues 53-186)
Chain of UniProt Q13761 (53-186, looked up): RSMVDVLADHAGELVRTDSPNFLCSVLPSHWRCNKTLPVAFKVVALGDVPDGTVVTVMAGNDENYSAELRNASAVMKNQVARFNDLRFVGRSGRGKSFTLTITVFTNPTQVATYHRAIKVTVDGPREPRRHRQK
Technique: protein-binding microarray
Form: hairpin DNA
Sample: in vitro
Concentration: not given
Setting: whole hairpin DNA, median over replicate spots
Reference: not given
Reading: higher = stronger binding
`CTCAGTTCTGTGGGCTTGACTCCTGTCAAGCCCACAGAACTGAGACACTC` has a median fluorescence of 4120 a.u.
The median fluorescence of `CTCAGTTCTGTGGGGTGGACTCCTGTCCACCCCACAGAACTGAGACACTC` is reported as 4150 a.u.
The median fluorescence of `GAGGCCTGTTGTGTTTGGCCTCCTGGCCAAACACAACAGGCCTCACACTC` is reported as 4320 a.u.
With `GAGGCCTGTTCGGGTTGGCCTCCTGGCCAACCCGAACAGGCCTCACACTC (5mC at 11)` the median fluorescence was 4950 a.u.
With `GAGGCCTCGTGTGGTTGGCCTCCTGGCCAACCACACGAGGCCTCACACTC (5mC at 8 36)` the median fluorescence was 4750 a.u.
`GAGGCCTGTCGCGGTAGGCCTCCTGGCCTACCGCGACAGGCCTCACACTC` has a median fluorescence of 5310 a.u.
`CTCAGCGCTGTGGGCTGGACTCCTGTCCAGCCCACAGCGCTGAGACACTC` has a median fluorescence of 4570 a.u.
For `GAGGCCTATTGTGGTTGGCCTCCTGGCCAACCACAATAGGCCTCACACTC`, the median fluorescence was 5050 a.u.

Set 3
Target: CCND2, cyclin fold, Cln2 fusion (human)
Technique: yeast growth competition, sequencing
Sample: yeast
Setting: weak parent motif
Reference: not given
Reading: higher = stronger binding
Starting sequence: GMNC docking peptide (human); KNAKRNLSSEFAN
`KNAKRNLSGEFAN [S9G]` — result for “normalised enrichment score”: 0.294.
For `KNAKRQLSSEFAN [N6Q]`, “normalised enrichment score” read -0.12.
For `KNAKRNLSSEFDN [A12D]`, “normalised enrichment score” read 0.227.
Under “normalised enrichment score”, `KNAKRNKSSEFAN [L7K]` is recorded as 0.422.
Under “normalised enrichment score”, `KNAKRMLSSEFAN [N6M]` is recorded as -0.215.
For `KNAKRNLSSEFVN [A12V]`, “normalised enrichment score” read -0.0757.
`KNAKRNLFSEFAN [S8F]` — result for “normalised enrichment score”: 0.00267.
`KNAKRNLSSEVAN [F11V]` — result for “normalised enrichment score”: 0.0876.

Set 4
Structure (SMILES): CCN(CC)CCCCN1c2ccccc2Oc2ccc(Cl)cc21
Read-out: enzyme activity
Action: inhibitor
Concentration: 0.5 µM
Reference: control
For Ephrin type-A receptor 4 (EPHA4, Homo sapiens, UniProt P54764): remaining activity read 91.9%.
It gave 96.5% for remaining activity (Phosphorylase b kinase gamma catalytic chain, skeletal muscle/heart isoform (PHKG1, Homo sapiens, UniProt Q16816)).
For Dual specificity tyrosine-phosphorylation-regulated kinase 3 (DYRK3, Homo sapiens, UniProt O43781): remaining activity read 99%.
For Ribosomal protein S6 kinase alpha-6 (RPS6KA6, Homo sapiens, UniProt Q9UK32): remaining activity read 109%.
Ephrin type-B receptor 4 (EPHB4, Homo sapiens, UniProt P54760) — remaining activity: 97.9%.
The remaining activity was 102% (Cyclin-dependent kinase 4, with cyclin D3 (CDK4, Homo sapiens, UniProt P11802)).
The remaining activity was 111% (3-phosphoinositide-dependent protein kinase 1 (PDPK1, Homo sapiens, UniProt O15530)).
The remaining activity was 107% (Calcium/calmodulin-dependent protein kinase type II subunit beta (CAMK2B, Homo sapiens, UniProt Q13554)).
It gave 107% for remaining activity (Ribosomal protein S6 kinase alpha-5 (RPS6KA5, Homo sapiens, UniProt O75582)).
It gave 118% for remaining activity (Homeodomain-interacting protein kinase 2 (HIPK2, Homo sapiens, UniProt Q9H2X6)).
Tyrosine-protein kinase Blk (BLK, Homo sapiens, UniProt P51451) — remaining activity: 106%.
It gave 108% for remaining activity (Serine/threonine-protein kinase WNK3 (WNK3, Homo sapiens, UniProt Q9BYP7)).
For Testis-specific serine/threonine-protein kinase 2 (TSSK2, Homo sapiens, UniProt Q96PF2): remaining activity read 103%.
Tyrosine-protein kinase Srms (SRMS, Homo sapiens, UniProt Q9H3Y6) — remaining activity: 105%.
Mitogen-activated protein kinase kinase kinase kinase 4 (MAP4K4, Homo sapiens, UniProt O95819) — remaining activity: 104%.
It gave 99.2% for remaining activity (Homeodomain-interacting protein kinase 4 (HIPK4, Homo sapiens, UniProt Q8NE63)).

For quick reference, copied from above (set 1):
The remaining binding was 100% (Serine/threonine-protein kinase 32C (STK32C, Homo sapiens, UniProt Q86UX6); cell-free assay).
It gave 96% for remaining binding (Serine/threonine-protein kinase haspin (HASPIN, Homo sapiens, UniProt Q8TF76); cell-free assay).
The remaining binding was 99% (Serine/threonine-protein kinase 36 (STK36, Homo sapiens, UniProt Q9NRP7); cell-free assay).
The remaining binding was 86% (Dual specificity tyrosine-phosphorylation-regulated kinase 1B (DYRK1B, Homo sapiens, UniProt Q9Y463); cell-free assay).
Phosphatidylinositol 4,5-bisphosphate 3-kinase catalytic subunit alpha isoform (PIK3CA, Homo sapiens, UniProt P42336, Q546K); cell-free assay — remaining binding: 84%.
It gave 100% for remaining binding (Fibroblast growth factor receptor 1 (FGFR1, Homo sapiens, UniProt P11362); cell-free assay).
For Serine/threonine-protein kinase SBK1 (SBK1, Homo sapiens, UniProt Q52WX2); cell-free assay: remaining binding read 100%.
